Experimental data collected from several papers.
Parts stem from different laboratories: compare values within a part only. Values joined by “and” are separate records of one study, mostly repeats; a detail may differ.
Sequence of UniProt P42336 (whole entry, unmodified, looked up): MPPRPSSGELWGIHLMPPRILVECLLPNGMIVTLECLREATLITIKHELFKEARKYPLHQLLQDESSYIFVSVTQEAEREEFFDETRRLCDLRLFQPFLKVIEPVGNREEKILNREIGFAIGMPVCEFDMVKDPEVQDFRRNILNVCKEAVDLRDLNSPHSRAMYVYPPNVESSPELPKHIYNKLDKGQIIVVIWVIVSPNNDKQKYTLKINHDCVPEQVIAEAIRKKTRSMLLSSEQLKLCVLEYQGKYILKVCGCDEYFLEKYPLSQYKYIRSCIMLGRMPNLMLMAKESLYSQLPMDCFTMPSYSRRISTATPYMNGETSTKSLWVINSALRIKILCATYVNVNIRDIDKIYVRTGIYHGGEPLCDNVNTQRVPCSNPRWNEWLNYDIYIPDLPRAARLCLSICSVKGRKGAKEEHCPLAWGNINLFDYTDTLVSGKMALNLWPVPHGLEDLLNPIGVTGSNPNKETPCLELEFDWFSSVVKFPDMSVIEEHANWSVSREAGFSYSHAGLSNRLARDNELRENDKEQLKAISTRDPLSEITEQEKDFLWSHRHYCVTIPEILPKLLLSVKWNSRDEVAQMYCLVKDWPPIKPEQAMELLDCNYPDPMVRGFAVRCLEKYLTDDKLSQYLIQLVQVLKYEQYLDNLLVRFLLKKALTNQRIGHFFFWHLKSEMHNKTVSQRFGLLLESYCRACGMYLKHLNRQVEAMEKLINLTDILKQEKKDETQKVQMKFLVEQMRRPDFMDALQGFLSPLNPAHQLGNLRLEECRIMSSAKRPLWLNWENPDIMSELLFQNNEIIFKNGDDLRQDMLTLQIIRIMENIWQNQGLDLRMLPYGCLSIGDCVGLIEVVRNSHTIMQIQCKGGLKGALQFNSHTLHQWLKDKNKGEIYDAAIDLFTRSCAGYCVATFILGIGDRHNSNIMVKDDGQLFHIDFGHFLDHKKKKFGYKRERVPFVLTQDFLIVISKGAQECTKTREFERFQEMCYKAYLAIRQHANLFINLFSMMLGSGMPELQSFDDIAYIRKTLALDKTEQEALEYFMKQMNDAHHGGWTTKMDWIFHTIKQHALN
Sequence of UniProt P49841 (whole entry, looked up): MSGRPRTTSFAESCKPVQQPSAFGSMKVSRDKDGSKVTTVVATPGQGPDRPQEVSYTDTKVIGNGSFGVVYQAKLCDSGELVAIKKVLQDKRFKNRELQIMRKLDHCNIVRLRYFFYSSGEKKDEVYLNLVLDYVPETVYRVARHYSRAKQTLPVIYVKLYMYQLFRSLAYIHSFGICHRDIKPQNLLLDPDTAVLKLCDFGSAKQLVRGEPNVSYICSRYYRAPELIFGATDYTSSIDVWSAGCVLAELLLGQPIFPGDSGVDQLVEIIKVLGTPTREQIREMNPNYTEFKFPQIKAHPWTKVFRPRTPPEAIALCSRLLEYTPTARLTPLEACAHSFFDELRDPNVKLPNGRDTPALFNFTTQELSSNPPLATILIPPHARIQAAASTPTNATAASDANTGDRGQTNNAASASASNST
Sequence of UniProt Q9BWU1 (whole entry, looked up): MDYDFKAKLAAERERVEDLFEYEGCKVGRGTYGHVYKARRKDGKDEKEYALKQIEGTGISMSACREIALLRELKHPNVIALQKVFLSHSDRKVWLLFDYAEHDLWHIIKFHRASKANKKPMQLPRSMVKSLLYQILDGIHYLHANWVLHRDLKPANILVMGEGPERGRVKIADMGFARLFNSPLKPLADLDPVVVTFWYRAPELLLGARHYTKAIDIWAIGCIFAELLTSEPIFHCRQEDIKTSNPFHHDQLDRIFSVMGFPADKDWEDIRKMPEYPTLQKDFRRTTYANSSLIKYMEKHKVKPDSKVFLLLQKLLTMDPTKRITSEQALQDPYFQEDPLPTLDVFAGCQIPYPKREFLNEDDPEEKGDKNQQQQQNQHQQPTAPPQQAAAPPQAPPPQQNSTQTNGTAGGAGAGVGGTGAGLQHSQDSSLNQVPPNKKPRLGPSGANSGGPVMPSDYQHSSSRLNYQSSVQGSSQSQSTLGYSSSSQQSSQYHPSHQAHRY

Sample 1 — species: mouse; matrix: microsomes or S9; tested at: 2 µM; time: 0.5 h
| SMILES | remaining compound |
| --- | --- |
| O=C(O)CCc1nc2cc(-c3ccsc3)ccc2[nH]1 | 87.4% |
| CC(C)c1noc(-c2cccc(=O)n2CC(=O)N2CCN(c3ccc(F)cc3)CC2)n1 | 11.3% |
| CS(=O)(=O)C1(C(=O)NC2CCCS(=O)(=O)C2)CCCC1 (stereo not shown) | 89% |
| CN(CCO)S(=O)(=O)c1ccc2c(c1)oc(=O)c1cc(S(=O)(=O)N(C)CCO)ccc12 | 27.6% |
| C(=N\n1cnnc1)/c1cn(-c2cccs2)nc1-c1ccccc1 | 31.5% |
| COc1ccccc1Nc1nc2nccc(-c3ccc4c(c3)OCO4)c2c(=O)[nH]1 | 26.2% |
| CC(C)OCCCNC(=O)c1ccc(C(C)(C)C)cc1 | 0.457% |
| Cc1nc2nc(Cl)n(Cc3ccc(-c4cc(CC(C)C)sc4S(=O)(=O)NC(C)(C)C)cc3)c2cc1-c1ccccc1 | < 1% |
| COc1ncnc(N)c1CNCCC1=CCOCC1 | 10.6% |
| Cc1nc(CC(C)C)cc(C(=O)N2C[C@@H](N(C)C)[C@H](C(C)C)C2)n1 | 1.29% |
| O=C1CC(c2cccs2)Cc2nc3[nH]nc(O)c3cc21 (stereo not shown) | 62% |

Sample 2 — tested at: 1 µM
SMILES: COc1ccc2cc(OCC3(C(=O)O)CN(C(=O)c4ccc(F)cc4)C3)ccc2c1
| target | test | remaining binding |
| --- | --- | --- |
| Mitogen-activated protein kinase kinase kinase kinase 2 (MAP4K2, Homo sapiens, UniProt Q12851) | cell-free assay, competition with immobilised ligand | 100% |
| Cyclin-dependent kinase 13 (CDK13, Homo sapiens, UniProt Q14004) | cell-free assay, competition with immobilised ligand | 100% |
| Phosphatidylinositol 4,5-bisphosphate 3-kinase catalytic subunit alpha isoform (PIK3CA, Homo sapiens, UniProt P42336, E542K) | cell-free assay, competition with immobilised ligand | 50% |
| MAP/microtubule affinity-regulating kinase 4 (MARK4, Homo sapiens, UniProt Q96L34) | cell-free assay, competition with immobilised ligand | 100% |
| Epidermal growth factor receptor (EGFR, Homo sapiens, UniProt P00533, del747-750/T751S) | cell-free assay, competition with immobilised ligand | 100% |
| Mitogen-activated protein kinase kinase kinase 19 (MAP3K19, Homo sapiens, UniProt Q56UN5) | cell-free assay, competition with immobilised ligand | 82% |
| Cyclin-dependent kinase 19 (CDK19, Homo sapiens, UniProt Q9BWU1) | competition binding | 95% |
| Hepatocyte growth factor receptor (MET, Homo sapiens, UniProt P08581, M1250T) | cell-free assay, competition with immobilised ligand | 100% |
| Proto-oncogene tyrosine-protein kinase Src (SRC, Homo sapiens, UniProt P12931) | cell-free assay, competition with immobilised ligand | 100% |
| Aurora kinase C (AURKC, Homo sapiens, UniProt Q9UQB9) | cell-free assay, competition with immobilised ligand | 98% |
| Glycogen synthase kinase-3 beta (GSK3B, Homo sapiens, UniProt P49841) | cell-free assay, competition with immobilised ligand | 100% |
| Serine/threonine-protein kinase WNK3 (WNK3, Homo sapiens, UniProt Q9BYP7) | cell-free assay, competition with immobilised ligand | 93% |
| Serine/threonine-protein kinase 32C (STK32C, Homo sapiens, UniProt Q86UX6) | cell-free assay, competition with immobilised ligand | 100% |
| Mitogen-activated protein kinase kinase kinase 15 (MAP3K15, Homo sapiens, UniProt Q6ZN16) | cell-free assay, competition with immobilised ligand | 94% |
| Tyrosine-protein kinase HCK (HCK, Homo sapiens, UniProt P08631) | cell-free assay, competition with immobilised ligand | 100% |
| Serine/threonine-protein kinase/endoribonuclease IRE1 (ERN1, Homo sapiens, UniProt O75460) | cell-free assay, competition with immobilised ligand | 80% |
| AP2-associated protein kinase 1 (AAK1, Homo sapiens, UniProt Q2M2I8) | binding | 100% |
| Serine/threonine-protein kinase Nek3 (NEK3, Homo sapiens, UniProt P51956) | cell-free assay, competition with immobilised ligand | 100% |
| LIM domain kinase 2 (LIMK2, Homo sapiens, UniProt P53671) | cell-free assay, competition with immobilised ligand | 90% |
| Wee1-like protein kinase (WEE1, Homo sapiens, UniProt P30291) | cell-free assay, competition with immobilised ligand | 100% |
| Ephrin type-A receptor 7 (EPHA7, Homo sapiens, UniProt Q15375) | cell-free assay, competition with immobilised ligand | 100% |
| Bone morphogenetic protein receptor type-2 (BMPR2, Homo sapiens, UniProt Q13873) | cell-free assay, competition with immobilised ligand | 87% |
| Dual specificity mitogen-activated protein kinase kinase 4 (MAP2K4, Homo sapiens, UniProt P45985) | cell-free assay, competition with immobilised ligand | 90% |
| Maternal embryonic leucine zipper kinase (MELK, Homo sapiens, UniProt Q14680) | cell-free assay, competition with immobilised ligand | 86% |
| Phosphatidylinositol 4,5-bisphosphate 3-kinase catalytic subunit alpha isoform (PIK3CA, Homo sapiens, UniProt P42336, Q546K) | cell-free assay, competition with immobilised ligand | 42% |

Sample 3 — effect on: enzyme activity; mode: inhibitor; tested at: 0.5 µM; reference: control
Target: Serine/threonine-protein kinase STK11 (STK11, Homo sapiens, UniProt Q15831)
Sequence of UniProt Q15831 (whole entry, looked up): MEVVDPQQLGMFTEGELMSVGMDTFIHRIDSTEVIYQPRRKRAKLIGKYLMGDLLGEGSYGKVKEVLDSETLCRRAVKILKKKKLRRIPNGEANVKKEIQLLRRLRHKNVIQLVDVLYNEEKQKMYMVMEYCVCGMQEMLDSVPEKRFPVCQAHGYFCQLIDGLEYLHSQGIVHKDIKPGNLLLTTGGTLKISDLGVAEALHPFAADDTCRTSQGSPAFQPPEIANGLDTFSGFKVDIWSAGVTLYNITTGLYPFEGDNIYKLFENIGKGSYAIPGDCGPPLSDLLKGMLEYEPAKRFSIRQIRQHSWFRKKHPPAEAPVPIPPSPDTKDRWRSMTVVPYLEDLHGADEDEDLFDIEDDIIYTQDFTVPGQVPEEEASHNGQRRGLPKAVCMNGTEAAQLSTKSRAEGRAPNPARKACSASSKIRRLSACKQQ
| SMILES | remaining activity |
| --- | --- |
| Cc1nc(Nc2ncc(C(=O)Nc3c(C)cccc3Cl)s2)cc(N2CCN(CCO)CC2)n1 | 108% |
| CN(C)CCCn1cc(C2=C(c3c[nH]c4ccccc34)C(=O)NC2=O)c2ccccc21 | 92.8% |
| O=C(Nc1ccc(Cl)cc1)c1ccccc1NCc1ccncc1 | 93.5% |
| CC(=O)O/N=C1/C(c2c(O)[nH]c3cc(Br)ccc23)=Nc2ccccc21 | 73.6% |
| CCC(=O)Nc1ccc2ncnc(Nc3cccc(Br)c3)c2c1 | 103% |
| O=c1cc(N2CCOCC2)oc2c1ccc1ccccc12 | 104% |
| CCOc1cc2ncnc(Nc3cccc(Br)c3)c2cc1OCC | 88% |
| COc1ccc(-c2cnc3c(-c4ccsc4)cnn3c2)cc1 | 95.9% |
| C[S+]([O-])c1ccc(-c2nc(-c3ccncc3)c(-c3ccc(F)cc3)[nH]2)cc1 (stereo not shown) | 81.6% |
| CC(C)[C@H](CO)Nc1nc(Nc2cccc(Cl)c2)c2ncn(C(C)C)c2n1 | 84.4% |
| O=C1NC(=O)/C(=C/c2ccc3nccnc3c2)S1 | 96.6% |
| Nc1[nH]nc2nnc(-c3c(-c4ccccc4)nn4ccccc34)cc12 | 91.8% |
| COc1ccc(Cl)cc1NC(=O)Nc1cc(C)nc2ccccc12 | 103% |
| CS(=O)(=O)CCNCc1ccc(-c2ccc3ncnc(Nc4ccc(OCc5cccc(F)c5)c(Cl)c4)c3c2)o1 | 106% |
| Cn1cnc2cc3c(Nc4cccc(Br)c4)ncnc3cc21 | 91.1% |
| Cn1cc(/C=C2\C(=O)Nc3ccc(S(N)(=O)=O)cc32)c2ccccc21 | 68.2% |
| Cc1ccc(NC(=O)c2ccc(CN3CCN(C)CC3)cc2)cc1Nc1nccc(-c2cccnc2)n1 | 104% |
| CCN1/C(=C/C(C)=O)Sc2ccc(OC)cc21 | 86.6% |

Sample 4 — effect on: enzyme activity; mode: inhibitor; tested at: 77 µM; reference: untreated
Target: DNA polymerase theta, ATPase domain (POLQ, Homo sapiens, UniProt O75417)
Sequence of UniProt O75417 (whole entry, unmodified, looked up): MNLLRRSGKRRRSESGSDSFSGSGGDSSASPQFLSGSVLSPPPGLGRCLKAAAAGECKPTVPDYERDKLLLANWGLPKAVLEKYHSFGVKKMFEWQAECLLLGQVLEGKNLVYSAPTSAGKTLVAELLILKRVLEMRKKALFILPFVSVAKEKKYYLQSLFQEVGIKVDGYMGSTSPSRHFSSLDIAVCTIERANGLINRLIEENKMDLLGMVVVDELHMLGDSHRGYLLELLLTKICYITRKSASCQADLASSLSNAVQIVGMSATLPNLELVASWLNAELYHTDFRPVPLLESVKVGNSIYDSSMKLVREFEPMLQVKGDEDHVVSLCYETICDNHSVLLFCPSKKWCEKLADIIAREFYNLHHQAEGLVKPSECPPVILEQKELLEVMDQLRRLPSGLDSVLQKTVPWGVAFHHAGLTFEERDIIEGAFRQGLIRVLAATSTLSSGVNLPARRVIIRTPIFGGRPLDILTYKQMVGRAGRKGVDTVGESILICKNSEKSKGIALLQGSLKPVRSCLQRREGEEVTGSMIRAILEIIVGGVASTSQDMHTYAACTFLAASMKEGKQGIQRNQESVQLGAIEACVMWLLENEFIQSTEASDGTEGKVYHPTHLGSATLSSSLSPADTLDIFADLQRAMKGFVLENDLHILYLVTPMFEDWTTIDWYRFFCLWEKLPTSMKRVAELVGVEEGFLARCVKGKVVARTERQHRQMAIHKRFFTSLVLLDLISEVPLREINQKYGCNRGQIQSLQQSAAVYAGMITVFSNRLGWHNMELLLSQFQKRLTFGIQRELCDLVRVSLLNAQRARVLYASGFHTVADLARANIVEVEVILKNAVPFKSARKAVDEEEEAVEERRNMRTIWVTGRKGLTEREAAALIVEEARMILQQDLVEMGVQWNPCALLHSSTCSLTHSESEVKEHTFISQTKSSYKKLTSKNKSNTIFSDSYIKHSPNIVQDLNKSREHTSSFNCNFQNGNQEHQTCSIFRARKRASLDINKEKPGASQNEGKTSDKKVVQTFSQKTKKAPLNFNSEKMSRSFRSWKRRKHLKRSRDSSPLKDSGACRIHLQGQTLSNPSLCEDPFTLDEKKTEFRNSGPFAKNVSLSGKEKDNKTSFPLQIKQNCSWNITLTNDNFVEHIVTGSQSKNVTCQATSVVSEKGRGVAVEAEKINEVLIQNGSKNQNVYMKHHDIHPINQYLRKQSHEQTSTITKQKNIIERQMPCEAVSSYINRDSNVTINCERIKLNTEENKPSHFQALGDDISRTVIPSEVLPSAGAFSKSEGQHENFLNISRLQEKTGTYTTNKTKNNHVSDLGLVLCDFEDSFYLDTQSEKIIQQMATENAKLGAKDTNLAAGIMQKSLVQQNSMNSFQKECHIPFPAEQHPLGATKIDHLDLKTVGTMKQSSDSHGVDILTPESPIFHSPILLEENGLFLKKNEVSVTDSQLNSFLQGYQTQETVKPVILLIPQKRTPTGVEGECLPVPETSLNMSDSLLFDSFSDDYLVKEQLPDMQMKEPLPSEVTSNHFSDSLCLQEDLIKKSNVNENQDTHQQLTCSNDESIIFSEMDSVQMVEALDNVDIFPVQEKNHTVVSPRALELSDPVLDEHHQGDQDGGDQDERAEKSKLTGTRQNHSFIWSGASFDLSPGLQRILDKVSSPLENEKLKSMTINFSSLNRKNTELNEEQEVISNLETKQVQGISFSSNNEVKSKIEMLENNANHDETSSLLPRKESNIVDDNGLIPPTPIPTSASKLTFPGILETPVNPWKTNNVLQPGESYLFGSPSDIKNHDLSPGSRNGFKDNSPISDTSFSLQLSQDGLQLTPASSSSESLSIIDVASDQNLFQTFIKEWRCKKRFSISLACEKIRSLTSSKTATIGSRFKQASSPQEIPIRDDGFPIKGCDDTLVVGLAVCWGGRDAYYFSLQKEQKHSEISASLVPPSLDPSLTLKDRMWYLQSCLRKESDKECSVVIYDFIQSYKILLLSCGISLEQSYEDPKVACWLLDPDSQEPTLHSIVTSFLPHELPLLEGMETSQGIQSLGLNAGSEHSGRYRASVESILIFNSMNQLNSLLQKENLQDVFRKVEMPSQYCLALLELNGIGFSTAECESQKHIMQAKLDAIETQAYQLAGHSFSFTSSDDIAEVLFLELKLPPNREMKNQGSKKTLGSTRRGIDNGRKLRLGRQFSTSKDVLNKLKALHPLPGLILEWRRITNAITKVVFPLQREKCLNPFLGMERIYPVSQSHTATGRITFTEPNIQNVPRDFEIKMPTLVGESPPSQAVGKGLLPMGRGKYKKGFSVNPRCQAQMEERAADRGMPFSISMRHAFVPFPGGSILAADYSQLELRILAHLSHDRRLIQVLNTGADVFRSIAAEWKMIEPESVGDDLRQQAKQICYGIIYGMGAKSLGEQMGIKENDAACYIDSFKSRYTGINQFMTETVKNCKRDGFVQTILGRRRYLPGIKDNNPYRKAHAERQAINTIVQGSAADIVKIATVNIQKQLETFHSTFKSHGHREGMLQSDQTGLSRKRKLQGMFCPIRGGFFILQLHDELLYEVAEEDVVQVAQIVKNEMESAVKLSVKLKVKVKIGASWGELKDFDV
| SMILES | remaining activity |
| --- | --- |
| Cc1c(CN2CCN(C(=O)[C@H](C)O)CC2)sc2c(N3CCOCC3)nc(-c3cnc(N)nc3)nc12 | 108% |
| CC[N+](CC)(CC(=O)Nc1c(C)cccc1C)Cc1ccccc1 | 75.3% |
| CC(CN(C)C)CN1c2ccccc2Sc2ccccc21 (stereo not shown) | 103% |
| CC(c1cc2ccccc2s1)N(O)C(N)=O (stereo not shown) | 97.8% |
| COc1nc(N)nc2c1ncn2[C@@H]1O[C@H](CO)[C@@H](O)[C@@H]1O | 92.5% |
| Cc1ccc(C(=O)Nc2cccc(C(F)(F)F)c2)cc1Nc1nc(-c2cccnc2)nc2c1cnn2C | 102% |
| CCCCCCCCCCCCCCCCCCOCC(COP(=O)([O-])OCC[N+](C)(C)C)OC (stereo not shown) | 104% |
| Cc1cnc(NC(=O)Nc2cc(Br)c(C)cc2OC[C@@H]2CNCCO2)cn1 | 98% |
| CC(=O)O[C@H]1C(=O)[C@@]2(C)[C@H]([C@H](OC(=O)c3ccccc3)[C@]3(O)C[C@H](OC(=O)[C@H](O)[C@@H](NC(=O)c4ccccc4)c4ccccc4)C(C)=C1C3(C)C)[C@]1(OC(C)=O)CO[C@@H]1C[C@@H]2O | 101% and 94.5% |
| Cc1c(-c2ccnn2C)cc(C(=O)NCc2ccc(S(C)(=O)=O)cn2)c(=O)n1-c1cccc(C(F)(F)F)c1 | 102% |
